Experimental data pooled from the literature.
Each numbered part is a random draw from the data of one study; scales do not carry over between parts. Positions count from the first letter of the parent shown.

Block 1
Target: Interferon regulatory factor 3, full length, phosphomimetic (IRF3, Homo sapiens, UniProt Q14653, residues 1-427, S386D/S396D/S398D/S402D/T404D/S405D)
Method: protein-binding microarray
Form: double-stranded DNA, one strand shown
Sample: in vitro
Concentration: 2540 nM top
Setting: 60-bp whole probe
Added: salmon DNA 0.4 mg/ml
Baseline: random background probes
Reading: higher = stronger binding
Constant ends, left off below: GCCTAGCAC … GTCTTGATTCGCTTGACGCTGCTG
Residues (chain): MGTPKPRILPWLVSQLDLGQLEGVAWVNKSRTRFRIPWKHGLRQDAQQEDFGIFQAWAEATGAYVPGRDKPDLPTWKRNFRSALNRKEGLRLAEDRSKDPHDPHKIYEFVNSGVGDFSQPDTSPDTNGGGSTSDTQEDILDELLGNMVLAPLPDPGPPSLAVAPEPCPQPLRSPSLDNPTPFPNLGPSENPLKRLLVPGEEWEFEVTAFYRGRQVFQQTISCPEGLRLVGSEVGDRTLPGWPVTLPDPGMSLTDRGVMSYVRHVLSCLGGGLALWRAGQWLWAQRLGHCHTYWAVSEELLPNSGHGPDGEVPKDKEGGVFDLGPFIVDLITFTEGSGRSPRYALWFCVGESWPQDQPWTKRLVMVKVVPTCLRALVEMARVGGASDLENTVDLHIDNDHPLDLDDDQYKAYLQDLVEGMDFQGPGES
Oligonucleotide | fitted relative affinity
CTCTTTTTGCTTTCTTTTATGTGCTAG | 2.63 z-score
GACGATATCAGTCTCGAGAAGTGCTAG | 1.06 z-score
TCTGGTTCCCATTCCAGGGTGTGCTAG | 3.72 z-score
TCATTTTTTTTTTTTACACTGTGCTAG | 1.38 z-score
TTAGGTTTCGACTTCCGGTTAGTGCTA | 3.35 z-score
TTAGGACTGCTACTGCCTTAGTGCTAG | -0.738 z-score
GACGGTCACGGTTTCGGGACGTGCTAG | 2.22 z-score
TTAGGTCTCGGTTTCGGCTAGTGCTAG | 2.97 z-score
TACTCTCCAGGGTTTCTCTTTGTGCTA | 0.93 z-score
TTAGGTCTCGGACTGGGTTGGTGCTAG | -0.481 z-score
TTAGATTTAGGGTATCGATTAGTGCTA | 0.000838 z-score
GACGGTCTCGGTATTGGGACGTGCTAG | 0.969 z-score
GACGGTCTCAGACTGGAGACGTGCTAG | 0.241 z-score
GACGGTTTCGGGTATCGGGCCGTGCTA | 4.14 z-score
TCCTCTCTCTATTCAGAGGAGTGCTAG | 1.91 z-score
GTAGATTTCGGGTTTCGATTAGTGCTA | 3.51 z-score
TACGGACTGGACTTTCGGGACGTGCTA | 0.0839 z-score
GACGGTTTCGGGAGTGGGGACGTGCTA | 3.4 z-score
GACGCTATCGACACTGGGGACGTGCTA | -0.294 z-score

Block 2
Target: CCND1, cyclin fold, Cln2 fusion (human)
Method: yeast growth competition, sequencing
Sample: yeast
Setting: strong parent motif
Baseline: not given
Reading: higher = stronger binding
Parent: PKN2 docking peptide (human); VSAVQKLDFSDTM
Substitution | normalised enrichment score
M13T | 2.52
V4P | 0.785
S2D | 0.765
D8Q | 1.26
L7A | -0.153
S10G | 1.91
S2W | 1.31
D8R | 0.251
S2A | 2.07
A3D | -0.0514
D11E | 1.91
K6V | 1.48
S2H | 1.72
M13V | 2.36
S2P | 1.62
A3Y | 0.567
D11A | 1.64
D11T | 1.59
V1K | 1.93
S10C | 1.76
K6G | 0.971
D8M | 0.983
K6L | 1
A3L | 1.32
D11R | 0.98

Block 3
Target: RNA binding protein fox-1 homolog 2, RRM domain, GST-SBP tag (RBFOX2, Homo sapiens, UniProt O43251-10, residues 100-194)
Method: RNA Bind-n-Seq
Form: RNA
Sample: in vitro
Concentration: 365 nM
Setting: natural RNA segment, single round, ends assumed
Baseline: no-protein control
Reading: higher = stronger binding
Oligonucleotide | RBNS enrichment (R)
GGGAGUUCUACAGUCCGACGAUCCAGGUCAUUCCUUGGCUAAGCCUUCGAGCUCCCUUAUACCCAUGCUAUCUGGUUUGACAAUUCCAUAUAUGGCAGUGGUGGUCUUCACUGAUGGUUGCGAGUGCAGGGACUGGAAUUCUCGGGUGCCAA | 1.1
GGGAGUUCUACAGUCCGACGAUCCAAAGGUCCUAAGAGGAGACAGCUGUGAAGUUGGGCGUGCUCUGUGGUACCAGCUGUGACUUUUCUAUUUCUCCUAGUUUUAGGUUGUUCAUGAAACUAGAAAUGUCAUCUGGAAUUCUCGGGUGCCAA | 0.433
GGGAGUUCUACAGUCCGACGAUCUGAGGCUCCAGCCUGUUUAGUGCAUGGGCAGCCAUCCUGGCAGCCAAGACAUCUCUGACAGAAGUGUUUUUGUUUGGUUUUGUUUUUUAAGAUUAUGUAUUUGCUACAAAUGGAAUUCUCGGGUGCCAA | 8.36
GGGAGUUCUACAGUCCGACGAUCGUGGGCCCGGAGUAAUCAGGCAGCCUUCAUAGGCGGUCAUGUGUGCAUGUGAGCACAUGCGUAUAUGUGCGUCUCUCUUUCUCCCUCACCCCCAGGUGUUGCCAUUUCUCUGGAAUUCUCGGGUGCCAA | 5.8
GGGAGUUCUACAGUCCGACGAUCAGGAUCCAUGAAAUUCCUAGGUCAGUUGAAUAAUAACUGAACUACUGGUUUGACUGUGGAUUAUUUCCUGGGUAUUAGUGGGACCCAACAGCACAUUGCUAUUAAUAGUAUGGAAUUCUCGGGUGCCAA | 0.47
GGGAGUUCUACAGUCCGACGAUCCUUGUGUUGUCCUUUGUCUUUUCUGUCUCAGAAUUUUGUACAUCUGGCUUAUUUUAAUGUGAUGAUGUAAUUGAUGGUUUUUUAUUAUUGUGGUAGGCCUUUUAACAUUUUGGAAUUCUCGGGUGCCAA | 0.721
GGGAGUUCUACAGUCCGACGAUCUUGGUGGGAAUGGAACUGGGCCGAUGUCCUUCAUUCAGCCUGUGCCUUUCUUGGGGUUUCUUUUCUGUUUUUCUUUCCGGAAGAGAAGGGCCUGAGAAAGGGCCAUGCCAUGGAAUUCUCGGGUGCCAA | 1.24
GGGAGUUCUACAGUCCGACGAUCCCAAGAAGGAGAUUGAUGCAUCAGGUUCAGUUUAACCUGGAAUAUCUGACUACCCCUGAAUCCACCCAGAAAGGGGGCCCAACACCCUUGUCCAUUUAUGGGUAUUUUUUUGGAAUUCUCGGGUGCCAA | 0.533

Block 4
Target: Ras GTPase-activating protein-binding protein 1, C-terminal RGG region (G3BP1, Homo sapiens, UniProt Q13283)
Sequence of UniProt Q13283 (whole entry, looked up): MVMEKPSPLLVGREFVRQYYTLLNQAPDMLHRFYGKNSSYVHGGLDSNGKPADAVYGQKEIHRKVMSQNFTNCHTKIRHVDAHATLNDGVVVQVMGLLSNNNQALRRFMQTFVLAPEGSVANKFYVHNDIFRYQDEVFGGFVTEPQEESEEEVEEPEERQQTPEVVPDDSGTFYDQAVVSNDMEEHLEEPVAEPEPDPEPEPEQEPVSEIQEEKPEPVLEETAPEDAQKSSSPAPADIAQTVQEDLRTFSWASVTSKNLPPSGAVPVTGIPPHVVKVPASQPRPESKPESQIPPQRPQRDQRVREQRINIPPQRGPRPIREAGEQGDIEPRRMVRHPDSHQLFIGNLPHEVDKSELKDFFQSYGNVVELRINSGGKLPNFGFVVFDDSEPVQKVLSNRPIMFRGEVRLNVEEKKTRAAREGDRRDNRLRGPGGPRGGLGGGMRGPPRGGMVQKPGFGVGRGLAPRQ
Method: RNA Bind-n-Seq
Form: RNA
Sample: in vitro
Concentration: 1 µM
Setting: whole 134-nt RNA, ends assumed
Added: 150 mM KCl
Baseline: input library
Reading: higher = stronger binding
Oligonucleotide | log2 enrichment
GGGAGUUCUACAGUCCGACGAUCCAAGUCCUGUGCUACACAUCGUAUGUACCGAAUCGGUUUGGAAAAAAAGGAAAGGAAAGUAUUAUGUUACGCCGUUCGGAUCUGCACUUCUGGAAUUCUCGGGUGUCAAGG | -1.82
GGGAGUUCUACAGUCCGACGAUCACCAUGCAGGUGGGCAUCUUUGGGAAGUGGGGCAAGGGGGGGAUAGGGAGGGGGGUAACACUUUGUGAACAGGUGGUCCCAGGUCGUUUCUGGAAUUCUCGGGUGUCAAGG | 2.19
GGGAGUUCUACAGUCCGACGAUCCCUCAAGUCCUGUGCUACACAUCGUAUGUACCGAAUCGGCGGGCGGGCGGGGAAAGUAUUAUGUUACGCCGUUCGGAUCUGCACUUCCAGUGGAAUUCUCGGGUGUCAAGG | 0.231
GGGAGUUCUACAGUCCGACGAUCCACAGACAACACGCACCCACACAGACACUGAGGGAAGGGGUUGGGAUGGGGACAGGGUGCACAGCAGGGCGGGGUAGGACCCCAGCCCCUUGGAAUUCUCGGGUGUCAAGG | -0.0308
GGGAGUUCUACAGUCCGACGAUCAAGUCCUGUGCUACACAUCGUAUGUACCGAAUCGGGGCCCCGGCCCCGGGCCCCGGAAAGUAUUAUGUUACGCCGUUCGGAUCUGCACUUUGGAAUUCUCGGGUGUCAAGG | -1.96
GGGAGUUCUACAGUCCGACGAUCUACUCUCUCGGGGCUGGAAGCUUCCUGACUGAAGAUCUCUCUGCACUUGGGGUUCUUUCUAGAACAUUUUCUAGUCCCCCAACACCCUUUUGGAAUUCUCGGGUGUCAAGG | 0.814
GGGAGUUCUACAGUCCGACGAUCCCUGUGCUACACAUCGUAUGUACCGAAUCGGGGAAAGGGGUUUUUGGGGUUUUUUUGGGGAAAGUAUUAUGUUACGCCGUUCGGAUCUGCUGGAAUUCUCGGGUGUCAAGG | 0.388
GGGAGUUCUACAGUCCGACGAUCUAACUAUAGAGGAGGAUCUGAUGGAUAUGGCAGUGGACGUGGAUUUGGGGAUGGCUAUAAUGGGUAUGGAGGAGGACCUGGAGGUGGCAAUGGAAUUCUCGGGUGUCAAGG | -0.76
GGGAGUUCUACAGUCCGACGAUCUCCUGUGCUACACAUCGUAUGUACCGAAUCAAAUUUUUAAAUUUUUAAACCCCCCCAAAAAAGUAUUAUGUUACGCCGUUCGGAUCUGCAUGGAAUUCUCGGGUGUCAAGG | -0.575

For quick reference, copied from above (block 3):
Oligonucleotide | RBNS enrichment (R)
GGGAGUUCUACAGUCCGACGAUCUGAGGCUCCAGCCUGUUUAGUGCAUGGGCAGCCAUCCUGGCAGCCAAGACAUCUCUGACAGAAGUGUUUUUGUUUGGUUUUGUUUUUUAAGAUUAUGUAUUUGCUACAAAUGGAAUUCUCGGGUGCCAA | 8.36
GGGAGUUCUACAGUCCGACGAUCCCAAGAAGGAGAUUGAUGCAUCAGGUUCAGUUUAACCUGGAAUAUCUGACUACCCCUGAAUCCACCCAGAAAGGGGGCCCAACACCCUUGUCCAUUUAUGGGUAUUUUUUUGGAAUUCUCGGGUGCCAA | 0.533
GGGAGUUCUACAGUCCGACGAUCUUGGUGGGAAUGGAACUGGGCCGAUGUCCUUCAUUCAGCCUGUGCCUUUCUUGGGGUUUCUUUUCUGUUUUUCUUUCCGGAAGAGAAGGGCCUGAGAAAGGGCCAUGCCAUGGAAUUCUCGGGUGCCAA | 1.24
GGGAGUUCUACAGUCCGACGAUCGUGGGCCCGGAGUAAUCAGGCAGCCUUCAUAGGCGGUCAUGUGUGCAUGUGAGCACAUGCGUAUAUGUGCGUCUCUCUUUCUCCCUCACCCCCAGGUGUUGCCAUUUCUCUGGAAUUCUCGGGUGCCAA | 5.8
